Results pooled from the literature.
Protocols differ between the studies behind these lines. Several values in a cell are separate wells, animals, samples, runs or records. ± marks the error that the study gave. In brackets after ≈: the same amount, converted by molar mass.

Plantazolicin  MIC (Bacillus anthracis; Sterne): 2 µg/mL
CNC(=O)[C@@H](NC(=O)[C@H](CC(C)C)[C@H](O)C(=O)NO)C(C)(C)C  inhibition (prothrombin time; human platelet-poor plasma; 1 µM, added: GA venom): 15% and 12.4% and 14.2%
CCCCCCCCCCCCN(C)C(=O)CP(=O)(O)O  MIC90 (Bacillus anthracis; Vollum): 0.097 µg/mL (≈ 0.302 µM)
CC(C)C(C)CCCCCCCCCCCc1cc(O)cc(O)c1 (stereo not drawn)  IC50 (Bacillus anthracis; 34F2): 26.8 µM
Cn1cnc(Cn2c(=O)[nH]/c(=N\c3cc4cn(C)nc4cc3Cl)n(Cc3cc(F)c(F)cc3F)c2=O)n1  anaemia TEAE, Severe severity (human, normal renal function; oral, 375 mg): 0%
O=C(Cc1cccc(OC(F)(F)F)c1)Nc1ccc(CCCCc2nnc(NC(=O)Cc3ccccn3)s2)nn1  inhibition (Replicase polyprotein 1ab, main protease (rep, Severe acute respiratory syndrome coronavirus 2, UniProt P0DTD1); reporter gene (Gaussia luciferase), inhibitor; 20 µM): -0.0115%
Cn1c(=O)ccc2ccc(F)c(CCNC[C@H]3CN(c4cnc5c(n4)NC(=O)CO5)C(=O)O3)c21  MIC90 (Bacillus anthracis): < 0.015 µg/mL
CCCCCCCCCCCCCCNC(=O)CP(=O)(O)O  MIC90 (Bacillus anthracis; Vollum): 1.56 µg/mL (≈ 4.65 µM)
CSc1nc(Cl)cc(Sc2nnc(-c3cc(C(F)(F)F)cc(C(F)(F)F)c3)[nH]2)n1  MIC (Bacillus anthracis; Sterne; 16 h): 3.1 µM
CCCCCCCCCCCCCCCc1cc(O)cc(O)c1  IC50 (Bacillus anthracis; 34F2): 46.8 µM
Nc1ncnc2c([C@@H]3N[C@H](CO)[C@@H](O)[C@H]3O)c[nH]c12  inhibition (Junin virus; viral replication; HeLa, Romero; 6.3 µM): 17.1%
CC[C@H](C)[C@H](NC(=O)[C@H](CC(C)C)NC(=O)[C@H](Cc1c[nH]c2ccccc12)NC(=O)[C@H](CCC(N)=O)NC(=O)[C@@H](NC(=O)[C@H](Cc1ccccc1)NC(=O)[C@H](C)NC(=O)[C@H](CCCCNC(=O)COCCOCCNC(=O)COCCOCCNC(=O)CC[C@H](NC(=O)CCCCCCCCCCCCCCCCCCC(=O)O)C(=O)O)NC(=O)[C@H](CCC(N)=O)NC(=O)[C@H](C)NC(=O)[C@@H](NC(=O)[C@H](CCCCN)NC(=O)[C@H](CC(=O)O)NC(=O)[C@H](CC(C)C)NC(=O)C(C)(C)NC(=O)[C@@H](NC(=O)[C@H](CO)NC(=O)[C@H](Cc1ccc(O)cc1)NC(=O)[C@H](CC(=O)O)NC(=O)[C@H](CO)NC(=O)[C@@H](NC(=O)[C@H](Cc1ccccc1)NC(=O)[C@@H](NC(=O)CNC(=O)[C@H](CCC(=O)O)NC(=O)C(C)(C)NC(=O)[C@@H](N)Cc1ccc(O)cc1)[C@@H](C)O)[C@@H](C)O)[C@@H](C)CC)[C@@H](C)CC)C(C)C)C(=O)N[C@@H](C)C(=O)NCC(=O)NCC(=O)N1CCC[C@H]1C(=O)N[C@@H](CO)C(=O)N[C@@H](CO)C(=O)NCC(=O)N[C@@H](C)C(=O)N1CCC[C@H]1C(=O)N1CCC[C@H]1C(=O)N1CCC[C@H]1C(=O)N[C@@H](CO)C(N)=O  serum amylase (healthy subjects, single ascending dose; 8.0 mg, baseline): 63.7 ± 19.2 U/L
FC(F)(F)c1cc(-c2nnc(Sc3cc(Cl)nc(Sc4ccccc4)n3)[nH]2)cc(C(F)(F)F)c1  MIC (Bacillus anthracis; Sterne; 16 h): 1.6 µM
CC(C)CCCCCCCCCCCCCCc1cc(O)cc(O)c1  IC50 (Bacillus anthracis; 34F2): 20.5 µM
COc1ccc2cc1Oc1cc(ccc1OC)CCC(N[C@@H]1CCCc3ccccc31)CCCC2 (stereo partly drawn)  MIC (Bacillus anthracis; Sterne 34F2): > 100 µg/mL

Repeated from above:
Cn1cnc(Cn2c(=O)[nH]/c(=N\c3cc4cn(C)nc4cc3Cl)n(Cc3cc(F)c(F)cc3F)c2=O)n1  anaemia TEAE, Severe severity (human, normal renal function; oral, 375 mg): 0%
Nc1ncnc2c([C@@H]3N[C@H](CO)[C@@H](O)[C@H]3O)c[nH]c12  inhibition (Junin virus; viral replication; HeLa, Romero; 6.3 µM): 17.1%
